Assay results pooled from the literature.
Parts stem from different laboratories: compare values within a part only. Changes are numbered by the printed parent chain.

Series 1 — target: CCND3, cyclin fold, Cln2 fusion (human); method: yeast growth competition, sequencing; matrix: yeast; notes: weak parent motif; baseline: not given; reading: higher = stronger binding
Parent: WEE1 docking peptide (human); HKTFRKLRLFDTP; partner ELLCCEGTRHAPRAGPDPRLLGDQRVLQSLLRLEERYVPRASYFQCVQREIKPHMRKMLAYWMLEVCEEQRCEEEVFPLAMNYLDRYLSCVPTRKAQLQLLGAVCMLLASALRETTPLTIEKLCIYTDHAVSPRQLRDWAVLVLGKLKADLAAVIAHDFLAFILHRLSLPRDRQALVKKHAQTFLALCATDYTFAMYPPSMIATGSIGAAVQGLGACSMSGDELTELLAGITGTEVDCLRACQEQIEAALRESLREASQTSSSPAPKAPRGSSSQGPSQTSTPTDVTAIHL
| Substitution | normalised enrichment score |
| --- | --- |
| HKTFRILRLFDTP [K6I] | 0.147 |
| HKTFAKARLFDTP [R5A L7A] | 0.0528 |
| KKTFRKLRLFDTP [H1K] | 0.124 |
| HITFRKLRLFDTP [K2I] | 0.0998 |
| HKTFYKLRLFDTP [R5Y] | 0.121 |
| HKTFRYLRLFDTP [K6Y] | 0.178 |
| HKTFRKARLFDTP [L7A] | 0.0392 |
| HKTFRDLRLFDTP [K6D] | 0.0536 |
| HKTFRKLRIFDTP [L9I] | 0.0661 |
| HKTFRKLRLFDKP [T12K] | 0.112 |
| HETFRKLRLFDTP [K2E] | 0.112 |
| HKTFRKRRLFDTP [L7R] | 0.102 |
| HKTFRKLRLFKTP [D11K] | 0.0987 |
| HKTFRKLRLFFTP [D11F] | 0.187 |
| HKTFRKLRLFNTP [D11N] | 0.00219 |
| HKTFRKLRLFDQP [T12Q] | 0.287 |
| HKTFRKLRLFLTP [D11L] | 0.113 |

Series 2 — method: universal PBM; molecule type: double-stranded DNA, one strand shown; matrix: in vitro; tested at: 600 nM; reading: higher = stronger binding
Target: Sal-like protein 4, full length isoform A (SALL4, Homo sapiens, UniProt Q9UJQ4, residues 1-1053)
Sequence of UniProt Q9UJQ4 (whole entry, looked up): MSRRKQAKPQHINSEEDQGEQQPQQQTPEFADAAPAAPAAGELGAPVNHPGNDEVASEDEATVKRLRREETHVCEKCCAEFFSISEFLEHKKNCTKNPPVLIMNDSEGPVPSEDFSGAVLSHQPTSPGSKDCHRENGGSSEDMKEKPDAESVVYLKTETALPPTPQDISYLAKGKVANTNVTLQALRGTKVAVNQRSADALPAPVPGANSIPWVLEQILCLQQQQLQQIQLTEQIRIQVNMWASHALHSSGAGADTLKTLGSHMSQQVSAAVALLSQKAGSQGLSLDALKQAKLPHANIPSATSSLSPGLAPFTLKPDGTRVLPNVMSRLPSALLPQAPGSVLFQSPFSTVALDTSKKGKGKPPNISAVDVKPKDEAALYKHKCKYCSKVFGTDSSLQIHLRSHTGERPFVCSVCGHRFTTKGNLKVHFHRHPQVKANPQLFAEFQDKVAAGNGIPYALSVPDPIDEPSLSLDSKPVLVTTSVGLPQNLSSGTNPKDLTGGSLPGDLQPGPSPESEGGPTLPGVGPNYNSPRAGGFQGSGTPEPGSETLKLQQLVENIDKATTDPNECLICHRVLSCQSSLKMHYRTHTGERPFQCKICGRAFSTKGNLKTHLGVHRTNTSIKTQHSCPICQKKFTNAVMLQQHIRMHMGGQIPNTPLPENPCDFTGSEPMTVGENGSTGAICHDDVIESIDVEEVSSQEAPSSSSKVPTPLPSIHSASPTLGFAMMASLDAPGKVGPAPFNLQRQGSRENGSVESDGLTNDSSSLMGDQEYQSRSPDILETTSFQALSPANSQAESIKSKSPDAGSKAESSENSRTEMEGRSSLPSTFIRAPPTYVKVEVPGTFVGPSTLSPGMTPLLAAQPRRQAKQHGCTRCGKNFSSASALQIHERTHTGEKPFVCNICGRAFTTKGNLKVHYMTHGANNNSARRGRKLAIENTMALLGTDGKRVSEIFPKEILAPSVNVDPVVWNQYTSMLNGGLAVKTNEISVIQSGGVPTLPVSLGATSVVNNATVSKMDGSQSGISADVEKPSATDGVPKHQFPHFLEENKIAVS
Notes: 8-mer, flanks averaged, mean of replicates
| Sequence | E-score |
| --- | --- |
| ACTCAAAC | 0.0593 |
| AGTTGGTA | 0.203 |
| GGAATACA | 0.112 |
| TCCATCCA | 0.0308 |
| GCTCAGGA | -0.0422 |
| GCGGGGAA | -0.0657 |
| CGTATAGC | -0.0198 |
| GTCCGTCA | 0.0496 |
| ACACCCGC | -0.205 |
| CAAGTCGA | 0.0645 |
| AGGCAGGC | -0.262 |
| CGTGCGGA | -0.21 |
| AGTCCACC | -0.24 |
| CATAGGCC | -0.0443 |
| AACGTTAT | 0.282 |
| CGTCTCGA | 0.0789 |
| ACCGTCTG | -0.271 |
| ACCAGAAG | 0.0414 |
| ATACCAAA | 0.204 |
| CGTCGGGA | -0.17 |
| ACCAATGG | -0.101 |
| TGAAGCAA | 0.0453 |
| CAGTGTTA | 0.0488 |
| CTGAAAAC | 0.146 |

Series 3 — target: CREM, bZIP domain (human); method: DHFR protein complementation; matrix: yeast; baseline: wild-type JUN-FOS pair; reading: higher = stronger binding
Notes: single substitutions, most at no-binding floor
Parent: JUN, bZIP domain (human); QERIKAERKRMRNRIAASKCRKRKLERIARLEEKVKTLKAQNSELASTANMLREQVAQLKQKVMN; partner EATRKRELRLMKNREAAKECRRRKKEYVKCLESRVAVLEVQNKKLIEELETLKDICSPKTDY
| Substitution | binding fitness |
| --- | --- |
| A49H | -1.46 natural log |
| A40T | -1.52 natural log |
| R30F | -1.35 natural log |
| T37W | -1.44 natural log |
| R30P | -1.43 natural log |
| R30A | -1.27 natural log |
| A49T | -1.49 natural log |
| S43V | -1.38 natural log |
| V56P | -1.52 natural log |
| S47V | -1.47 natural log |
| A46Q | -1.33 natural log |
| A40V | -1.49 natural log |
| L59G | -1.15 natural log |
| R53V | -1.46 natural log |
| A29W | -1.47 natural log |
| Q41R | -1.36 natural log |
| Q41M | -1.41 natural log |
| A46E | -1.26 natural log |
| L52W | -1.46 natural log |
| S47D | -1.41 natural log |
| T48W | -1.48 natural log |
| T37M | -1.32 natural log |

Series 4 — method: RNA Bind-n-Seq; molecule type: RNA; matrix: in vitro; tested at: 365 nM; baseline: no-protein control; reading: higher = stronger binding
Target: RNA binding protein fox-1 homolog 2, RRM domain, GST-SBP tag (RBFOX2, Homo sapiens, UniProt O43251-10, residues 100-194)
Notes: natural RNA segment, single round, ends assumed
Constant ends, left off below: GGGAGUUCUACAGUCCGACGAUC … UGGAAUUCUCGGGUGCCAA
| Sequence | RBNS enrichment (R) |
| --- | --- |
| CCGUCCACUGCGCGGCCUCGUCAGUCCCGGGGCUGACUGUCCCUCUCAGCUCUGCGCCUGCCAGGCAGGGCACGUGCUCACAGCCCUGGGUUGAUUUAUUUUUUUAAGGG | 3.29 |
| CCUCCUCCCUGCCAGAUGACUGUCAUUGCCUCCACUCACCCUUCUGCUUGUCACUCGGCAGCUUAGGGCCUCUGCGCAGGAACCUGACUAGGACUAUGACCUCCACGGCG | 0.602 |
| CUCAUCUCCCCUCACAGGCUGUCUUCAUGAUGCAGGACCUGGGCACAUGGUCACAUUAUUCCGUUCACAUUGGUCCUUGUGAGAACCUCACAGUCUGGAGGCGGCUGCUU | 0.625 |
| ACAGAGCCUGAAGCCCACACUCCGGAAAUGUCUCCUUCCAGAGAAAUGUUGGAGCCGAUCCAGGGUUUGAGAGAGCUACAAAGACAUCGGGGGCUGGAGCCAUGCCUUGG | 0.521 |
| CAGCCUGAGGGUGAAGAAAACCACAUCACCCUGCCUUUAUGUGCUGAGGCACAUUCCUGUCUCCCAUCCUCCCUCCCAUUCAUGUCUGCAACCCCCUCGCCCCAGCAGCA | 1.83 |
| AAGGCUCUCACACUUCUUCUGUGAAGCGUGGGCUUCAUUUCCAUGGCCCUGAGGCCCAGAGAGACAGCUGUCCACUUACCGGCAGGGUAGUCAUAGACAUAGAUACUGCA | 0.645 |
| CAUGGUACCAGCCCAGAGUCGGGCCGGGUCCUUGGUAUAGGACAUGAGGAAAUGUUGUGUUCAGAAAUGAAUAAAUGGAAUGCCCUCAUACAAGGGGGAGGGUGGGGUGG | 0.778 |
| UGGCAGGCAGUCCCAUGCUCUGGGCCUUACCUCUAGUCCCCUGCCUGCUCACACCUGGUCCCCUAGCCUUUUCUCUUGGGCAGUGUAGUAGUAUGGGCGAGCCACCCUCA | 0.408 |
| GGUGGGGGGGUAGGGGAAAGCCACUUUUCCCGGAGGCUUCUCCUCCUCUGCCUGGCCUGUUCCUGUCCCUGUCUUCCUACCUCUAUAGCAAGCCCAAAGUGUCUUUUCAG | 0.593 |
| CUAGGCUAUGGGACAAUCAUCCCAUUCACCACUUGACAUCCUUGACAUCCUUGACUUUCAUUCCCCCAACCUCCAGCAGGUUGGCCCCAAUCCUCUUCACCUCUGUGUUU | 0.429 |
| AAAAAAGGGGGUUUAAAUACUGUUGGCAUUUUUAUGGUUCCUUUAAAUGCCCUAGCUAUUCCCAGAGGGGUUUUUUUGUUUGUUUUUUUGGUUUUGAUUUUCUUUUUGUU | 4.99 |
| UCAGGAAGUGACAGGCCCAUCAUAUCAAAUAACUUAUUCACUUUUCAUGUGGCAGGAAACUGGAAUAUCGCUUUUAAUAAAAUGGAAAAAUAUGCUUCUACAUAUUUACC | 1.01 |

Series 5 — method: protein binding microarray; molecule type: double-stranded DNA, one strand shown; matrix: in vitro; tested at: not given; baseline: not given; reading: higher = stronger binding
Target: Histone acetyltransferase KAT6A, winged helix 1, GST fusion (KAT6A, Homo sapiens, UniProt Q92794, residues 1-85)
Notes: 8-mer, flanks averaged, mean of 2 arrays, mostly near background
Construct (chain): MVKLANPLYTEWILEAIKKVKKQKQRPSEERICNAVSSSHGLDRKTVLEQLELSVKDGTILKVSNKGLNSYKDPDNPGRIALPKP
| Sequence | E-score |
| --- | --- |
| GACGGGAA | 0.327 |
| ACGCCCGA | 0.261 |
| AACAGACC | -0.0246 |
| AATTTTCC | -0.0422 |
| ACTGACTC | -0.0436 |
| AGAATGGG | -0.21 |
| TCCGGCAA | 0.0372 |
| CGGCGTGA | 0.344 |
| AAGGTCTG | -0.0259 |
| CATATGCC | 0.0185 |
| CTACCGCA | 0.209 |
| AGTATAGC | 0.0234 |
| ACGATTTG | -0.067 |
| AGTACCAT | -0.118 |
| CACTTAAC | -0.277 |
| ACGAATCG | 0.0693 |
| AAATATCG | -0.0722 |
| TAAGCGAA | 0.0168 |

Series 6 — method: protein-binding microarray; molecule type: double-stranded DNA, one strand shown; matrix: in vitro; tested at: 2200 nM top; notes: 60-bp whole probe; added: salmon DNA 0.4 mg/ml; baseline: random background probes; reading: higher = stronger binding; constant ends, left off below: GCCTAGCAC … GTCTTGATTCGCTTGACGCTGCTG
Target: Interferon regulatory factor 7, full length, phosphomimetic (IRF7, Homo sapiens, UniProt Q92985, residues 1-503, S471D/S472D/S475D/S476D/S477D/S483D/S484D/S487D)
Sequence of UniProt Q92985 (whole entry, unmodified, looked up): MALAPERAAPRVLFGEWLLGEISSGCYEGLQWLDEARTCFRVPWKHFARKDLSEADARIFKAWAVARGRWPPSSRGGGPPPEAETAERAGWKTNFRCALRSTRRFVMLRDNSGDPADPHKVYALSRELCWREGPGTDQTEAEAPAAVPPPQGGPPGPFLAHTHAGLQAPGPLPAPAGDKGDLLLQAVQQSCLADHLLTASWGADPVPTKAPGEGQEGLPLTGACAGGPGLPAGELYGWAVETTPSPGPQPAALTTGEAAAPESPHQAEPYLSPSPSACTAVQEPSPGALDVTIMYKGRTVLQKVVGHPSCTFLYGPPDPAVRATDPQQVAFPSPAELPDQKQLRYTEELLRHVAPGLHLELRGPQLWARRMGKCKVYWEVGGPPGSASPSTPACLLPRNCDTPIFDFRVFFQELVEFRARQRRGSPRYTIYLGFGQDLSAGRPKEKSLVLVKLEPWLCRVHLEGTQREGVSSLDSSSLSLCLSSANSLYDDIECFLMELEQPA
| Sequence | fitted relative affinity |
| --- | --- |
| GACGATATCACTCTCGAGACGTGCTAG | 0.808 z-score |
| ATAACCTTGAACTTCGGCCTGTGCTAG | 0.234 z-score |
| TTAGGTTCTGGTTTCGGTTAGTGCTAG | 6.98 z-score |
| GACGGTATCGGACAGGGGACGTGCTAG | -0.446 z-score |
| TTAGGACTGCGTTTCGGTTAGTGCTAG | 2.51 z-score |
| TTAGATCTCCGACTGGATTAGTGCTAG | 0.121 z-score |
| TTAGGTATCGACACTGGGTTGGTGCTA | 0.0272 z-score |
| TTCGATTCCAGTTTCGATTAGTGCTAG | 6.96 z-score |
| TGTGGACCTTGGGAGATTTCGTGCTAG | -0.668 z-score |
| TCAGGTCTCGCTATGTTACTGTGCTAG | 1.19 z-score |
| TTAGGTTTCGGTCTTGGTTAGTGCTAG | 6.55 z-score |
| GACGAAGTGGGGTATCGAGACGTGCTA | 0.0451 z-score |
| TTAGGTTTCTGTTTCGGTTAGTGCTAG | 9.37 z-score |
| TTAGATATCGGGTTTCGATTTGTGCTA | 6.73 z-score |
| TTCAGTTTTCCTATGTCATTGTGCTAG | 2.7 z-score |
| GTAGGACTGGGTCTCGGTTAGTGCTAG | -0.372 z-score |
| TTAGGACTGCTCTTCCTTTAGTGCTAG | 0.695 z-score |
| GACGGACTGGATATCGGGACGTGCTAG | -0.458 z-score |
| TTAGATTTCGGGTTTCGACTAGTGCTA | 4.96 z-score |
| TCTCTCCCTTTATCTCTTTTGTGCTAG | 2.59 z-score |
| TTTTTTTTCCTAATTGAACCGTGCTAG | 1.73 z-score |
| TCATCTTTCCAACTCTGACTGTGCTAG | 2.16 z-score |
| TTAGGTCTTCTTCTCCTTTAGTGCTAG | 1.02 z-score |
| TTAGGTCTCAGACTGGATTAGTGCTAG | -0.409 z-score |
| GTGTTTTCACTTTTCCTACAGTGCTAG | 7.61 z-score |

Single results of other studies
| Substance | target | assay | system | setting | how to read | measurement | result |
| --- | --- | --- | --- | --- | --- | --- | --- |
| PhoQ, residues 284 288 289 292 302 303 SSYNSA | PhoP, residues 12 14 15 18 19 SGWQI (Escherichia coli, UniProt P23836) | Sort-seq, item: YFP reporter | E. coli | PhoQ-PhoP variant library, added: 10 µM Mg2+ | baseline: high Mg2+ state, higher = stronger signaling | fold induction | 1.85 |

Some of these lines once more (series 1):
| Substitution | normalised enrichment score |
| --- | --- |
| HKTFRILRLFDTP [K6I] | 0.147 |
| HKTFAKARLFDTP [R5A L7A] | 0.0528 |
| KKTFRKLRLFDTP [H1K] | 0.124 |
| HITFRKLRLFDTP [K2I] | 0.0998 |
| HKTFYKLRLFDTP [R5Y] | 0.121 |
| HKTFRYLRLFDTP [K6Y] | 0.178 |
| HKTFRKARLFDTP [L7A] | 0.0392 |
| HKTFRDLRLFDTP [K6D] | 0.0536 |
| HKTFRKLRIFDTP [L9I] | 0.0661 |
| HKTFRKLRLFDKP [T12K] | 0.112 |
| HETFRKLRLFDTP [K2E] | 0.112 |
| HKTFRKRRLFDTP [L7R] | 0.102 |
| HKTFRKLRLFKTP [D11K] | 0.0987 |
| HKTFRKLRLFFTP [D11F] | 0.187 |
| HKTFRKLRLFNTP [D11N] | 0.00219 |
| HKTFRKLRLFDQP [T12Q] | 0.287 |
| HKTFRKLRLFLTP [D11L] | 0.113 |
